# Measured values of several laboratories.
# Parts stem from different laboratories: compare values within a part only.

# Set 1
# Target: RNA binding protein fox-1 homolog 2, RRM domain, GST-SBP tag (RBFOX2, Homo sapiens, UniProt O43251-10, residues 100-194)
# Method: RNA Bind-n-Seq
# Molecule type: RNA
# Matrix: in vitro
# Tested at: 365 nM
# Notes: natural RNA segment, single round, ends assumed
# Relative to: no-protein control
# Direction: higher = stronger binding
# Shared flanks, not repeated: GGGAGUUCUACAGUCCGACGAUC … UGGAAUUCUCGGGUGCCAA
# Construct (chain): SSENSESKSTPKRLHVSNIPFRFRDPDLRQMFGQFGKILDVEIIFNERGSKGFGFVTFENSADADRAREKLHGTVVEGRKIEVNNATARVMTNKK
Sequence,RBNS enrichment (R)
AGAUGAACGCAGCAUGAAUCUCAUUUCCAUUUCUAAGCAGCUGGGUGGUGCGGCGAUUCUUUAGUUCCUGUUUUGUUUUUUUUCCUUUUCAAGCGCUAUCCACAUCUGAC,3.31
CCCCCGCCACCUCCCAGGCACCGUAGUUGUGAGAAUCAGAUGUGAUCAUGUGUGCAGAUGUCCUGUGAGGAGGGAGCAUAAAGCACUGUGAAAAUGUAGCAUGCUGUCUA,9.17
UAAUUCAGUGUCCCAAUGGUGUCCUAGGGAGGCAGCAGACGUUUCGUUUGUCCUCAGUAAGAGCUGAAUCCUUAAAAAUUUAAGAAACUACUUUCAGCUUCCUGCUCCAC,0.249
AGUUUUCUGUAAUUCUCCCCCUCUUUAAAAACAUCACUGAAAUUUCAAUAAAUUUUUAUUGAAAUGAGUUUUGAAGUUGUGGUAAUGAUUUCUUCAAGAGUUGUCUUUCA,0.396
UAUUUGUAUAUAUUGAGAUAAUUUAUUUAAUAUACUUUAAAUAAAGGUGACUGGGAAUUGUUACUGUUGUACUUAUUCUAUCUUCCAUUUAUUAUUUAUGUACAAUUUGG,0.727
UUCUGUAAGCACUGACCUGGGUAAGGCAGAGGGUAGGAGUCACCAUCCCUCCUCUGCCAAUAUCGCUACAACUCCUGCCUCCAGCACUAGGCUAUAACUUUGGAGUGAUA,0.326
GACCCCAUGCUGAGUGGCCAGUGGGGAGCGGCGCCCGGCAGGCUCUUCUGGGGUCGUCUGUCCUAUCCGUGGAUUGUAUAUACUCUUCUCUGUUAAGGAGUUUUUCCCAA,0.469
AUUCCCUCCACAUGCUGCACGCGCAUCUCGCCCCCAGGGGCACUGCCUGGAAGAUUCAGGAGCCUGGGCGGCCUUCGCUUACUCUCACCUGCUUCUGAGUUGCCCAGGAG,3.39
CAGACGCAUUGCCCGGUACUAGGAAGGAGUGAGGUGUGUUCCCACCGUACACUUCCCACACGAGCUGCGGCUGCCAGCCUCGGGCCAUCAGCCUAGGAGAGCAGAUGCAG,0.341
CCAACCACAGGGAGUGCCAGUUAACACUGGAAGGAUUAAGGCAAGGUCCCUUCUCUUGAGACUCCCCUCUGAGAUCUGAAAAAUGAAGUGGCUUAGGAACAUCAGCAGUG,0.447
GCCUCUUCUGGCUGUCAGGAGCAAAGCCUGAAGACUUGGAGCUGCAGGACUGGAAGAACAGUGGAGCCCCGUGGGUCUCACCCUUUAAGGAUGCUGAGGCCUAGAGAUGG,0.709
CGGUCCAAGGACUUUUACUUUGCGCUUCGUAACUACUGCCAGCUUCUCCUCUCCUGGCCCUGCUCCCAGAUUGCAGCCUCCCUGCAGUGUCUGCCCUUGCCACCUCCCAG,0.443

# Set 2
# Target: RING finger protein unkempt homolog, zinc fingers 1-6, GST-SBP tag (UNK, Homo sapiens, UniProt Q9C0B0, residues 30-357)
# Method: RNA Bind-n-Seq
# Molecule type: RNA
# Matrix: in vitro
# Tested at: not given
# Notes: RNA with constant flanks, ends assumed
# Relative to: input RNA pool
# Direction: higher = stronger binding
# Shared flanks, not repeated: GGGAGUUCUACAGUCCGACGAUC … CAACAGAGGAUUGAGCAUCA
# Target sequence (chain): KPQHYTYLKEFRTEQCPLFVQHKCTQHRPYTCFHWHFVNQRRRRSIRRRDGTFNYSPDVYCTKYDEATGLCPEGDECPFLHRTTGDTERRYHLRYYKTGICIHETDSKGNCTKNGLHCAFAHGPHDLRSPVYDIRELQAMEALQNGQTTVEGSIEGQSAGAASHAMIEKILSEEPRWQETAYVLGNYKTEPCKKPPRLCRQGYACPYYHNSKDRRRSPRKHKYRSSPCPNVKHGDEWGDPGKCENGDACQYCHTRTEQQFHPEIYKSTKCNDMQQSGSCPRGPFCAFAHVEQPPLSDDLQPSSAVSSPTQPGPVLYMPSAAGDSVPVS
Sequence,bound/input enrichment [ratio]
GAACGGGGACGCCUGAAAGAAGAGCUAGAAGAAGCCCGGGACAUAGCUAGGCGGCGCUCUUCCGGGAAUAUCAAGUUUAUUGGAGAGUUAUUCAAGUUGAAGAUGUUAACAGAAGCAAUA,8.63
UCAUCAAAGAUAUUGUCUGCUGAAAGUUCAUCUAGUACAGAAACUUCGGUGGUCAGCAGCCGUUCAGUUUCUAAUGCCACUUUUUCUGGAACUCCUCCACAGCCUACAAGUCGGAGACAA,0.145
CGAUUAGUUUAAGCUGUUUCAUGUAUUUUACUUUAAACCUUAUUUUGGCAACUUAUCUUGUCCGCAUUAUAAAAACUUACUUAAAAUACUAUUUUACUACAAAACAAAACAUUUAUUACA,5.51
GCUUCAAACUUGCAACGUGGAUUUCAUUUUUUUUUUUUUUUAAUUUAUUCUCUGGGAUCCCUCCGUAACCUGGCAUUGCUCAUUGCUCAUGAAUCCCUUAACAAUGGCGGAGCUGACGCG,1.51
GCAGCUGCAGUUGCACUUUCCUCCCUGAUUCAUGCUUUGGAUGACUUAGACAUGGUGGCCACCGUUCGAUAUGCUUAUGACAAAAGAGCUAAUCCUCAAGUCGGCGUGGCUUUUCCUCAU,0.287
GGUAGUGAACAAUGACCUCAUUUUAUUUUCUAUGUUAGUUAUUUAUUUCAAAAUUUACAUUUCCGUUUAUUUUCGUCUGUAAAGCGUAUGUUUCGCACUGCUCUUUUACUCUGAGGGUUU,36.2
GAAAAUCAAAAGACUAAUAUUAAUACUGUGGCUAAACAGGAACAGCGACCCAUAAAAAAGAACCGUCUUUAUUCAACAGAUUUCAUAGUGUUUAAUGACAACGAUGGUUCAGAUGAUGAA,0.245
GAUGCCCCUCUGGGAAGUUCUUAUAUGUGCAACAAAGAGCAGGUGCUUUCUGUGUCCCGAGCGUUUCAGAUCAACACCUUUAACCUAAAGGUGCAACCUUUUAAUGUGACAAAAGGACAG,0.192
CGCAACGUGAUCGUGGAGCGCAGGAACCUGAUCACCGUGUGCAGGUUCUCUGUGAAAACCCUGCCCGAGAAGUACACAGCAGAACCCAUUGAUGACUCUUCCGAGGAGUUUGUUAAUUUC,0.0812
GCCCUCAAUUUUUCUGUGUUCUACUAUGAGAUCCAGAAUGCACCAGAGCAAGCCUGCCUCUCCGCCAAACAAGCCUUCGAUGAUGCUAUAGCUGAGCUGGACACAUUAAACGAGGAUUCC,0.227
ACCUGAGGACAUUCUGAGACUUCCUUUCUUCCAUUUUUUUUUUUUUUAAAGAGCCUGUGACCGUUGCUGUGGGCAGCCAGUUCCUGGGGCUUCCUCUUGGGCCCCCUGCACUCGGUCUCC,0.762

# Set 3
# Target: PABPC1L2, full length, GST fusion (mouse, UniProt A0ABA7IW68)
# Method: RNAcompete
# Molecule type: RNA
# Matrix: in vitro
# Tested at: 20 nM
# Notes: 7-mer, probes averaged, single round
# Relative to: mean of 7-mers
# Direction: higher = stronger binding
# Residues (chain): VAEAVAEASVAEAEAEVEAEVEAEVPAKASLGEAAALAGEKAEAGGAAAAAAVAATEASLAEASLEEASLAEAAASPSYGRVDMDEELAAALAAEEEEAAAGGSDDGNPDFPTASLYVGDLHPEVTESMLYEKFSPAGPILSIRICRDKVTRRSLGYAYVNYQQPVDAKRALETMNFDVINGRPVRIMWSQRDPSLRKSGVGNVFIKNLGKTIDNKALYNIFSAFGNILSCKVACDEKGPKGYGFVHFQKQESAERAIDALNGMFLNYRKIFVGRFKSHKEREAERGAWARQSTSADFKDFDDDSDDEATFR
Sequence,7-mer Z-score
UUUCGCA,-0.389
UAGGACG,0.177
CAAUUGC,-0.155
AUGUACG,-0.0464
CGAGUCU,-0.264
GGACUAU,0.095
CCAGAGG,-0.0699
CUGCGUU,-0.364
AGAGUCA,-0.22
AUCCUUA,-0.322
AUCGAUU,-0.246
AUUACAC,-0.166
AAGGGAA,0.466
GAGUAAU,-0.186
CCUCCAC,-0.389
UUGGGCC,-0.318
UCGCCAU,-0.396
CCUUUUA,0.394
GUCGAGA,-0.0917

# Set 4
# Target: Phosphate system positive regulatory protein PHO4, full length, GST-tagged (PHO4, Saccharomyces cerevisiae, UniProt P07270, residues 1-312)
# Method: competition protein-binding microarray
# Molecule type: double-stranded DNA, one strand shown
# Matrix: in vitro
# Tested at: 2 µM
# Notes: whole 60-bp probe, lowest competitor level
# With: Cbf1 competitor, 0.05 µM
# Direction: higher = stronger binding
# Shared flanks, not repeated: … GTCTTGATTCGCTTGACGCTGCTG
# Target sequence (chain): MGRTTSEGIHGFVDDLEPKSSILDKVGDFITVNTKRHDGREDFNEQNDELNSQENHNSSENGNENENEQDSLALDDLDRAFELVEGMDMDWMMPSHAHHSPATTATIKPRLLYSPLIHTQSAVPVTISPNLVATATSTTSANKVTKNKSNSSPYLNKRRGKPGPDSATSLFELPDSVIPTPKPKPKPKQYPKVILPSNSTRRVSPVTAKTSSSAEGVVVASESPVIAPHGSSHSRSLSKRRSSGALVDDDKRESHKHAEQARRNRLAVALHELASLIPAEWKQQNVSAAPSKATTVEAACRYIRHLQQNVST
Sequence,fluorescence intensity [a.u.]
TGACGGCGAAGCTCGCACGTGCGCAGCCCGGGGGCG,18600
CTTTCCCGATCTTGGGGTGTGGGTGTAGCACATTTG,7490
TGCGCAACAACTTGACATGTGGGTGTATGTCTAGAA,11200
CTCAAAAGCTTGGGGTGCGTGGGACGGCGCTGCTCG,8730
CTCCCTGGGCGGCTGCACGTGCTGGCTGGCTCCTCC,17100
GTCTTGTCTCATTGTAAAGTGGGTGTCCCCACTTCA,4730
CGTTGGTCTTTTTGGTGAAACGGAGTACTGGCTTGC,3130
CCATATCAGACTGCCCGCGTGGGTATAATTCTGAGG,15300
AAAGCGGTAATTTGTCAAGTGGGTGCAGATATCTAT,4530
AAATTACTAAGTTGTCACAGAACTTACCCCGTATGA,3160
CGGGGTTAAGTTTGTCACGTGGGTGGCTTGCAGCAG,17200
AAATGTATACCACTTCACGTGCCAGCGAGTAGGTTT,16200
CTTTCCCGATCTTGTCTAGTGGGTGTAGCACATTTG,5420
AGGTGCTGCAACAAAAGCAAGTCCCACTGGACCTTT,3580
CCGGCGACCTCCAAGCGCGTGCCAGGTGGGCCCCTC,10800
GAAACCAGATTTTGAGGCGTGCTTTGCAACTGTGAA,8310
GTCTTGTCTCATTGCGGGGTGGGTGTCCCCACTTCA,4100

# Set 5
# Target: Prothrombin, mature alpha-thrombin (F2, Homo sapiens, UniProt P00734)
# Method: aptamer microarray, sandwich
# Molecule type: DNA with 2'F-ANA
# Matrix: in vitro
# Tested at: 200 nM
# Notes: whole 15-mer aptamer, many near background
# With: Cy3 exosite-II aptamer, 400 nM
# Direction: higher = stronger binding
# Sequence: GGTTGGTGTGGTTGG
Modification,mean fluorescence intensity [a.u.]
2'F-ANA at 1 2 3 6 7 8 9 10 12 14 15,80.8
2'F-ANA at 1 2 5 7 9 11 14,105
2'F-ANA at 3 5 7 8 11 12 15,237
2'F-ANA at 3 4 5 6 8 9 10 11 12 13,56.8
2'F-ANA at 1 4 5 7 8 9 11 12,110
2'F-ANA at 1 2 3 7 9 13 15,181
2'F-ANA at 1 3 4 5 6 7 9 13 14 15,48.5
2'F-ANA at 3 4 5 6 7 8 11 14,50.5
2'F-ANA at 3 4 5 8 9 11 14,56.7
2'F-ANA at 1 2 3 4 5 8 10 11 12 15,92.8
2'F-ANA at 2 5 6 9 10 12 13 14 15,64.1
2'F-ANA at 1 3 5 6 7 10 12 14,46.4
2'F-ANA at 2 3 4 5 6 11 15,65.5
2'F-ANA at 3 4 5 6 7 9 10 11 13 14,50
2'F-ANA at 1 7 8 9 12 14 15,85.9
2'F-ANA at 1 6 7 8 9 10 13,54.3

# A few entries again (set 4):
Sequence,fluorescence intensity [a.u.]
AAAGCGGTAATTTGTCAAGTGGGTGCAGATATCTAT,4530
AAATTACTAAGTTGTCACAGAACTTACCCCGTATGA,3160
CGGGGTTAAGTTTGTCACGTGGGTGGCTTGCAGCAG,17200
AAATGTATACCACTTCACGTGCCAGCGAGTAGGTTT,16200
CTTTCCCGATCTTGTCTAGTGGGTGTAGCACATTTG,5420
AGGTGCTGCAACAAAAGCAAGTCCCACTGGACCTTT,3580
